Measurements from different studies.
A part holds a random share of what one study measured. Substitutions count along the parent as printed.

Study 1
Target: RING finger protein unkempt homolog, zinc fingers 1-6, GST-SBP tag (UNK, Homo sapiens, UniProt Q9C0B0, residues 30-357)
Sequence of UniProt Q9C0B0 (30-357, looked up): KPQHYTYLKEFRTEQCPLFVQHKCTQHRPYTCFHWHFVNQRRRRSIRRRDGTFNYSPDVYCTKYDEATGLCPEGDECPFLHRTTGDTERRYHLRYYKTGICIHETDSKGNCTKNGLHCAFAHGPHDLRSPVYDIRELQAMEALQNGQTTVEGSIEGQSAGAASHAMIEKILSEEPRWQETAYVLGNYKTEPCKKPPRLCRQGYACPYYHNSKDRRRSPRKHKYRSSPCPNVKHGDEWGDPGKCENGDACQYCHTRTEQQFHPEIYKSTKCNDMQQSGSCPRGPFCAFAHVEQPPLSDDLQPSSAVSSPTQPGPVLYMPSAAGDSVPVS
Method: RNA Bind-n-Seq
Form: RNA
Medium: in vitro
Tested at: not given
Notes: RNA with constant flanks, human and mouse sites, ends assumed
Reference: input RNA pool
Reading: higher = stronger binding
Measurement: bound/input enrichment
Shared flanks, not repeated: GGGAGUUCUACAGUCCGACGAUC … CAACAGAGGAUUGAGCAUCA
CACUCAAUCCUCCUCCUACUGAACCGGUUUCAUGUGGACAGGAGGAGCAAAUACGACAUCCUCAUGGAGAAGCUUUCGGUCAUGCUGAGCACACGGACUAACCACAUAGAGACGCUGGGA: 0.333 ratio
AAACAUCUUCUCAAGCAGUCAACGUAGAAUGCUUGGGAAAUAGUCAUAAUUACCCACAUAUAGUAAUUAAUAGAUGGUAAUUAAUUGAUCCUUGAUGUGAUGUUCUUUUGCAUAUUUCCU: 1.19 ratio
UUACCGGCUGAAGAAGGAAAAACCUUGCUGGAACUUGUGAUUGAGCAGUUUGAAGACUUGCUAGUUAGGAUUUUAUUACUGGCAGCAUGUAUAUCUUUUGUUUUGGCUUGGUUUGAAGAA: 0.845 ratio
GCUGCAAUCUAUAAUUCAUUUGUGUGAAAAGACAAAAUUACCAAUGACUUGAGUUCAGAGAUCCUAACAUAGCUAGGUGCUAUGGUGCAGACCCAUACCCACGGUCCCAGAUAAUUGAAA: 0.241 ratio
UGGACAGAAAAAAUAAUGAAACAAACUGAAGUGUUAUUGCAGCCAAAUCCAAAUGCCAGGAUAGAAGAAUUUGUUUAUGAGAAACUGGAUAGAAAAGCUCCAAGUCGUAUAAACAACCCA: 0.455 ratio
CCCUUACCCCCGCCCCUUCCCUCUUCCUCCCCCAUCAAAACUCCGCUUGUGUCCCCACCCGGCCCACUGACCAAAGGGAACCUCCCGGUGGUUGCACCCCCCGUCCCCUGUGCGCCACCA: 1.32 ratio
GAAAAGGAAGACAUAAAAAUCACUAAGGAAAGAACUCCAGAAAGUGAAGAAGAAAAUGUAGAAUGGGAAACUAAUAGAGAUGAUUCUGACAAUGGAGAUAUUAAUUAUGAUUAUGUUCAU: 1.23 ratio
AGAAAUGGGCCGCUCCAAUUCUAGAUCACAUUCUUCAAGAUCCAAGUCUAGAUCACAGUCUAGUUCUAGAUCAAGAUCAAGAUCACAUUCUAGAAAGAAGAGAUACAGUUCUAGGUCUCG: 0.179 ratio

Study 2
Target: Ras GTPase-activating protein-binding protein 1, full length (G3BP1, Homo sapiens, UniProt Q13283)
Sequence of UniProt Q13283 (whole entry, looked up): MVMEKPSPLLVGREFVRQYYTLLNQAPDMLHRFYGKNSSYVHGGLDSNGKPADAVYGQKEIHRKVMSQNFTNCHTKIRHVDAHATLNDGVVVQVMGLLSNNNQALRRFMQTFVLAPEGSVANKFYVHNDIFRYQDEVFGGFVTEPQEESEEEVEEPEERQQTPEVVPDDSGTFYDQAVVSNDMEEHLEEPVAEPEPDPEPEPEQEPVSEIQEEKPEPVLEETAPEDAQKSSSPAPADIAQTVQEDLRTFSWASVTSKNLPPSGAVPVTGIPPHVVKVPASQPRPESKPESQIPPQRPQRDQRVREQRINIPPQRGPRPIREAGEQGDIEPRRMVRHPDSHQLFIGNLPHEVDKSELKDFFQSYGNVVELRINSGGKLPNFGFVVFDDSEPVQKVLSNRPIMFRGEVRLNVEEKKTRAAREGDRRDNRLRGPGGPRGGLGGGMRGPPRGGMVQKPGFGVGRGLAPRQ
Method: RNA Bind-n-Seq
Form: RNA
Medium: in vitro
Tested at: 200 nM
Notes: whole 134-nt RNA, ends assumed
With: 150 mM KCl
Reference: input library
Reading: higher = stronger binding
Measurement: log2 enrichment
Shared flanks, not repeated: GGGAGUUCUACAGUCCGACGAUC … UGGAAUUCUCGGGUGUCAAGG
CCUCAAGUCCUGUGCUACACAUCGUAUGUACCGAAUCGGUUUGGAGGUUUGGAAAGUAUUAUGUUACGCCGUUCGGAUCUGCACUUCCAG: -0.25
UCCUGUGCUACACAUCGUAUGUACCGAAUCGGGCCCCCGGGGCCCCCGGGGCCCCCGGGGAAAGUAUUAUGUUACGCCGUUCGGAUCUGC: -0.418
CACAGACAACACGCACCCACACAGACACAGAGGGAAGGGGUUGGGAUGGGGACAGGGUGCACAGCAGGGCGGGGUAGGACCCCAGCCCCG: 1.86
UUAAGACAGUCAUUUUAAAAUGGUGGCUGAAUUUCCCAACCCACCCCCAAACUAAACACUAAGUUUAAUUUUCAGCUCCUCUGUUGGACA: 0.311
UACUCUCUCGGGGCUGGAAGCUUCCUGACUGAAGAUCUCUCUGCACUUGGGGUUCUUUCUAGAACAUUUUCUAGUCCCCCAACACCCUUU: 1.18
GCAGGAAGUAAAAACAAAUGGAAAUGCUUCGGAUAGUGGCAGGGGUGGGGGUUGCUAAGGAAAGGGUGGGAUGGGAGUGAGUAAAGAGUU: 0.819
CAAGUCCUGUGCUACACAUCGUAUGUACCGAAUCGGUUUUUUUGGUUUUUGGAGGAAAGUAUUAUGUUACGCCGUUCGGAUCUGCACUUC: -0.793
GCAGGAAGUAAAAACAAAUGGAAAUGCUUCGGAUAGUGGCAGGGGUGGGGGUUGCUAAGGAAAGGGUGGGAUGGGAGUGGGUAAAGAGUA: 0.934
GUCCUGUGCUACACAUCGUAUGUACCGAAUCAAACCCCCCCAAACCCCCAAACCCAAAAAAGUAUUAUGUUACGCCGUUCGGAUCUGCAC: -0.185

Study 3
Target: ABI1, truncated, D143A, DHFR fusion (Arabidopsis thaliana)
Method: DHFR PCA, deep sequencing
Medium: yeast
Notes: methotrexate growth selection, single substitutions
With: (+)-ABA 0.0091 µM
Reference: wild-type fitted maximum
Reading: higher = stronger binding
Measurement: relative binding score
Parent: PYL1, truncated, DHFR fusion (Arabidopsis thaliana); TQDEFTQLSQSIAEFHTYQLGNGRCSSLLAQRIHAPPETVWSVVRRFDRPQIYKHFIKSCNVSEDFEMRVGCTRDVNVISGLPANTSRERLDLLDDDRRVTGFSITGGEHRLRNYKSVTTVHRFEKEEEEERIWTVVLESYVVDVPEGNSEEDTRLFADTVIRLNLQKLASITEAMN
T135M: -13.3%
C60D: -0.68%
T17D: -3.07%
R98P: -1.57%
E89H: 1.25%
L166E: -5.21%
L8K: -7.19%
Y53K: -0.492%
E38H: -3.49%
E38Q: 0.449%
T154P: -7.23%
L29M: 0.85%

Further values, each from its own experiment
PhoQ, residues 284 288 289 292 302 303 TASMAF  fold induction (PhoP, residues 12 14 15 18 19 LHATL (Escherichia coli, UniProt P23836); Sort-seq, refers to: YFP reporter; E. coli; PhoQ-PhoP variant library, with: 10 µM Mg2+; reference: high Mg2+ state, higher = stronger signaling): 11.1

Excerpt of the above (study 1):
UUACCGGCUGAAGAAGGAAAAACCUUGCUGGAACUUGUGAUUGAGCAGUUUGAAGACUUGCUAGUUAGGAUUUUAUUACUGGCAGCAUGUAUAUCUUUUGUUUUGGCUUGGUUUGAAGAA: 0.845 ratio
UGGACAGAAAAAAUAAUGAAACAAACUGAAGUGUUAUUGCAGCCAAAUCCAAAUGCCAGGAUAGAAGAAUUUGUUUAUGAGAAACUGGAUAGAAAAGCUCCAAGUCGUAUAAACAACCCA: 0.455 ratio
GAAAAGGAAGACAUAAAAAUCACUAAGGAAAGAACUCCAGAAAGUGAAGAAGAAAAUGUAGAAUGGGAAACUAAUAGAGAUGAUUCUGACAAUGGAGAUAUUAAUUAUGAUUAUGUUCAU: 1.23 ratio
AAACAUCUUCUCAAGCAGUCAACGUAGAAUGCUUGGGAAAUAGUCAUAAUUACCCACAUAUAGUAAUUAAUAGAUGGUAAUUAAUUGAUCCUUGAUGUGAUGUUCUUUUGCAUAUUUCCU: 1.19 ratio
CCCUUACCCCCGCCCCUUCCCUCUUCCUCCCCCAUCAAAACUCCGCUUGUGUCCCCACCCGGCCCACUGACCAAAGGGAACCUCCCGGUGGUUGCACCCCCCGUCCCCUGUGCGCCACCA: 1.32 ratio
